# Measured values of several laboratories.
# Parts stem from different laboratories: compare values within a part only.

# Set 1
# Target: RING finger protein unkempt homolog, zinc fingers 1-6, GST-SBP tag (UNK, Homo sapiens, UniProt Q9C0B0, residues 30-357)
# Method: RNA Bind-n-Seq
# Form: RNA
# Matrix: in vitro
# Tested at: not given
# Setting: RNA with constant flanks, human-mouse chimeric sites, ends assumed
# Baseline: input RNA pool
# Reading: higher = stronger binding
# Constant ends, left off below: GGGAGUUCUACAGUCCGACGAUC … CAACAGAGGAUUGAGCAUCA
# Target sequence (chain): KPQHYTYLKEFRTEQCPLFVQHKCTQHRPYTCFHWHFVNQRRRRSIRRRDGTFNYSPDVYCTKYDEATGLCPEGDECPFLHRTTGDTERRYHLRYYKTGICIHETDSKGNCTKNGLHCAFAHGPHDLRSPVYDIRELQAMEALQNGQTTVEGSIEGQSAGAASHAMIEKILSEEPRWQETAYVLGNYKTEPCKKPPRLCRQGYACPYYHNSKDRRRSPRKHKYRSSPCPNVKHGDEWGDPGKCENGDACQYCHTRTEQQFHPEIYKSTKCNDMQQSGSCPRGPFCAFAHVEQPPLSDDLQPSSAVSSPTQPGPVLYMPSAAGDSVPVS
Strand,bound/input enrichment [ratio]
AGAGAAAUGAGAAAGAAUCUCACACAAGAAGAGAUGCAAAGAAUGUCUACUAGAGUCCUUUUGGCGACUCUUUCCAUUCCUAUUACUCCUGAGCGUACUGAUAUUGCUCGACUUUUGGAU,0.0928
ACUCAGAGAUUAUAUUCCCAAAGUGCUGGGAGUAAAGGUGUGGCCACCACACCUAACUUGAUGGAUAUAUAUUUUUUUUAAUAUGAAUCUUCCUGUUCGUCCAGGGAAGAAAGAUUUGUU,0.996
UAAAUUAGGGCUGCCGUUUUCUGUUUCUCCCUGGGCUGCGGAAAGCCAGAAGAUUUUAUCUAGCUUAUACAAGGCUGCUGGAGCUUGCUCUUUUUUUCCACGAGGGUUUUUUUUCCAGCA,0.634
GUGCCCUUCUCGCUGCUCCUGCGGGGCCCCAGCUGGGCAUUCCGGGACUGGUACCCUGCACACAGCCGCCUCUUCGAUCAAGCUUUCGGGGUGCCCCGGUUGCCCGAUGAGUGGUCGCAG,0.0793
CUCUUUGAAUCUUUCAAGAGUUUUGAAGGUCUCUUUUAUUUUCUGGGGUCCAUUGUUAACUUUAGUCAGGACCCAGAUGUGCACUUUAAAUAUAUUCAGGCGGCUUGCAAGACUGGGCAA,0.665

# Set 2
# Target: Hepatocyte nuclear factor 3-beta, forkhead domain (FOXA2, Homo sapiens, UniProt Q9Y261, residues 142-269)
# Method: protein-binding microarray
# Form: double-stranded DNA, one strand shown
# Matrix: in vitro
# Tested at: not given
# Setting: k-mer, scored over probes, only values ≥0.25
# Reading: higher = stronger binding
# Residues (chain): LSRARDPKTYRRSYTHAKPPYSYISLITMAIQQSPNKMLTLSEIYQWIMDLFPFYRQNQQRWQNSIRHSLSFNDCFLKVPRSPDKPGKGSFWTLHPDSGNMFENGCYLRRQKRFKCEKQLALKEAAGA
Strand,E-score
AAGTTTGT,0.252
TGTACAAA,0.343
CATGATTA,0.292
ACATATAA,0.424
TAAAGTAA,0.263
CTGTATCC,0.273

# Set 3
# Target: Interferon regulatory factor 7, full length, phosphomimetic (IRF7, Homo sapiens, UniProt Q92985, residues 1-503, S471D/S472D/S475D/S476D/S477D/S483D/S484D/S487D)
# Chain of UniProt Q92985 (whole entry, unmodified, looked up): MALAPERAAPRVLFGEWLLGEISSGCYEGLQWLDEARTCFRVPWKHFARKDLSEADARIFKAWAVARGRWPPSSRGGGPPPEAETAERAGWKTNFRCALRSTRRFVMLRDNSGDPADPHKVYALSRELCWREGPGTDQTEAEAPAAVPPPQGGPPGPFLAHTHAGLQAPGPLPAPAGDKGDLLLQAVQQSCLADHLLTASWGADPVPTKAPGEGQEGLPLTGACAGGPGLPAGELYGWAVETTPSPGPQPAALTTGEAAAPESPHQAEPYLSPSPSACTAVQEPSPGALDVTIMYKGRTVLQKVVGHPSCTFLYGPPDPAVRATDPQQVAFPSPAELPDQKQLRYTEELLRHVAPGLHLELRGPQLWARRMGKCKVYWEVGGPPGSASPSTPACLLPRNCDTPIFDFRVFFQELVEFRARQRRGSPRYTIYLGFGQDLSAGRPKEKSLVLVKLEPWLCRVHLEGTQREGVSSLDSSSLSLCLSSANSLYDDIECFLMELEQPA
# Method: protein-binding microarray
# Form: double-stranded DNA, one strand shown
# Matrix: in vitro
# Tested at: 2200 nM top
# Setting: 60-bp whole probe
# Added: salmon DNA 0.4 mg/ml
# Baseline: random background probes
# Reading: higher = stronger binding
# Constant ends, left off below: GCCTAGCAC … GTCTTGATTCGCTTGACGCTGCTG
Strand,fitted relative affinity
TACGGTATCGGGTTTCGGGACGTGCTA,1.95 z-score
TTAGAACTGAGACTGGAGTAGTGCTAG,-0.715 z-score
TCATCTCCCATTCTGAAACTGTGCTAG,2.03 z-score
CTAGAGATTTTTCTCAACCGGTGCTAG,-0.394 z-score
ACAGGACAGTCCCATCTACCGTGCTAG,0.31 z-score
TTAGGTCTCGGTCTCGGTGAGTGCTAG,0.324 z-score
TTAGGTTTCCTTTCGCTTTAGTGCTAG,8.49 z-score

# Other studies, line by line
Substance,target,assay,system,conditions,how to read,measurement,result
"PhoQ, residues 284 288 289 292 302 303 SLSLLA","PhoP, residues 12 14 15 18 19 GHCSL (Escherichia coli, UniProt P23836)","Sort-seq, item: YFP reporter",E. coli,"PhoQ-PhoP variant library, added: 10 µM Mg2+","baseline: high Mg2+ state, higher = stronger signaling",fold induction,31.8
